Published values from different studies.
Lines come from different studies, so protocols differ. ± marks the error that the study gave.

CN([O-])C(=O)CN1CCN(CC(=O)N(C)[O-])CCN(Cc2ccccn2)CC1.[89Zr+4] has an intact complex of 92.2% (radio-TLC; human serum; 7 days, run 2).
With CC(=O)N([O-])CCCCCNC(=O)CCC(=O)N([O-])CCCCCNC(=O)CCC(=O)N([O-])CCCCCN.[89Zr+4] the intact complex was 89.2 ± 0.8% (radio-TLC; aqueous buffer; 7 d, pH 7.2, 37 °C, 89Zr-labelled complex, with: FeCl3 10-fold excess).
COc1ccc2c(c1)C(C)(C)C(/C=C/C1=C(Oc3ccc(C(=O)NCCCCOc4cc(CN(Cc5ccccn5)Cc5ccccn5)cc(CN(Cc5ccccn5)Cc5ccccn5)c4)cc3)C(=C/C=C3/N(CCCCS(=O)(=O)[O-])c4ccc(OC)cc4C3(C)C)CCC1)=[N+]2CCCCS(=O)(=O)[O-].O=[N+]([O-])[O-].O=[N+]([O-])[O-].[99Tc+].[C-]#[O+].[C-]#[O+].[C-]#[O+].[Zn+2] gave an intact compound of 97.7% (radio-TLC; formulation buffer; 18 h, room temperature).
For O=C([O-])CN1CCN(CC(=O)[O-])CCN(CC(CCCc2ccccc2[N+](=O)[O-])N(CC(=O)[O-])CC(=O)[O-])CC1.[90Y+3] (centres unmarked), “intact radiolabelled complex” read 99.5 ± 0.4% (TLC; human serum; 183 h, pH 7, 37 °C).
With C[N+](C)(CCOCCOCCOCCNC(=S)Nc1ccc(C[C@H]2CN(CC(=O)[O-])CCN(CC(=O)[O-])CCN2CC(=O)[O-])cc1)C[c-]1cccc1.[64Cu+2].[Fe+2].c1cc[cH-]c1 the intact compound was 81.2 ± 3.2% (radio-HPLC; PBS; 240 min, pH 7.4).
The intact complex of CN([O-])C(=O)CN1CCNCCN(CC(=O)N(C)[O-])CC1.[89Zr+4] is reported as 100% (radio-TLC; human serum; 3 days, run 2).
CN(O)C(=O)CCC(=O)NCCCN(CCCCN(CCCNC(=O)CCC(=O)N(C)O)C(=O)CCC(=O)N(C)O)C(=O)CCC(=O)N(C)O.[89Zr] has an intact complex of 97.6 ± 0.4% (radio-TLC; aqueous buffer; 1 d, pH 7.2, 37 °C, 89Zr-labelled complex, with: FeCl3 10-fold excess).
Cc1ccc(C(C)C)cc1.O=C(N=P12CN3CN(CN(C3)C1)C2)c1[c-]cccc1.[Cl-].[Ru+2] gave an intact compound of 50% (DMSO-d6; 1 week).

Repeated from above:
COc1ccc2c(c1)C(C)(C)C(/C=C/C1=C(Oc3ccc(C(=O)NCCCCOc4cc(CN(Cc5ccccn5)Cc5ccccn5)cc(CN(Cc5ccccn5)Cc5ccccn5)c4)cc3)C(=C/C=C3/N(CCCCS(=O)(=O)[O-])c4ccc(OC)cc4C3(C)C)CCC1)=[N+]2CCCCS(=O)(=O)[O-].O=[N+]([O-])[O-].O=[N+]([O-])[O-].[99Tc+].[C-]#[O+].[C-]#[O+].[C-]#[O+].[Zn+2] gave an intact compound of 97.7% (radio-TLC; formulation buffer; 18 h, room temperature).
